Experimental data collected from several papers.
Numbered parts are unrelated; each lists some results of a single study.

Series 1 — technique: RNA Bind-n-Seq; molecule type: RNA; matrix: in vitro; concentration: 365 nM; relative to: no-protein control; reading: higher = stronger binding
Target: RNA binding protein fox-1 homolog 2, RRM domain, GST-SBP tag (RBFOX2, Homo sapiens, UniProt O43251-10, residues 100-194)
Notes: natural RNA segment, single round, ends assumed
`GGGAGUUCUACAGUCCGACGAUCAGAAGUUCUUUCAGAUCACCAAUAUAAAAUUGUUUCCCAAAUAUAUGUGUUUAUCAAAUUUUGACAGGUUUUGAAUGUUCUGUCUAUACCCUAUUUUUAAGAAGUAGGUAUGGAAUUCUCGGGUGCCAA`: “RBNS enrichment (R)” 1.92.
`GGGAGUUCUACAGUCCGACGAUCUUGGCAGGAUGGUGACAUUGAACAUGAUUGCUCUCUGUCUCUUUUUUCAGCUUAUGGGUAUUUAUCUUCUAUUAGUAUUUGUAUCUUCAGUUCAUUCCACUUUAGGAAACUGGAAUUCUCGGGUGCCAA`: “RBNS enrichment (R)” 0.365.
For `GGGAGUUCUACAGUCCGACGAUCAAUAGUUUACAAGUUAUCCUACUCCACAGAUUUUGGUAUGUUUGUUAUCUGGACAUGAUUUUGCUAUGCAGUUGUGAUAAUAAAAAUUCCAGCUCCUCAGGUUUAACCUCUGGAAUUCUCGGGUGCCAA`, “RBNS enrichment (R)” read 0.656.

Series 2 — technique: protein-binding microarray; molecule type: double-stranded DNA, one strand shown; matrix: in vitro; concentration: 250 nM; notes: 60-bp whole probe; with: salmon DNA 0.4 mg/ml; relative to: random background probes; reading: higher = stronger binding
Target: Interferon regulatory factor 5, full length, phosphomimetic (IRF5, Homo sapiens, UniProt Q13568-2, residues 1-514, K96S/S451D/S453D/S456D/S462D)
With `GCCTAGCACGACGGTTTGGGACTGGGGACGTGCTAGGTCTTGATTCGCTTGACGCTGCTG` the log fluorescence was -0.166 z-score.
The log fluorescence of `GCCTAGCACGACGATTTCGGGTTTCGCGACGTGCTAGTCTTGATTCGCTTGACGCTGCTG` is reported as 3.58 z-score.
For `GCCTAGCACGACGGTATCGGTCACGGGACGTGCTAGGTCTTGATTCGCTTGACGCTGCTG`, the log fluorescence was 5.61 z-score.
`GCCTAGCACGACGGACTGGGGACTGGGAACGTGCTAGTCTTGATTCGCTTGACGCTGCTG` gave a log fluorescence of -0.335 z-score.

Series 3 — technique: RNA Bind-n-Seq; molecule type: RNA; matrix: in vitro; concentration: 20 nM; notes: 6-mer, flanks averaged, single round; with: 150 mM LiCl; relative to: input library; reading: higher = stronger binding
Target: TAR DNA-binding protein 43, full length, His tag (TARDBP, Homo sapiens, UniProt Q13148, residues 1-414)
Under “6-mer enrichment (R)”, `GUGAUU` is recorded as 1.07.
`CGGGUC`: “6-mer enrichment (R)” 0.935.
Under “6-mer enrichment (R)”, `GGAUUC` is recorded as 0.875.

Other studies, line by line
`PhoQ, residues 284 288 289 292 302 303 ALASRC` gave a fold induction of 14.6 (PhoP, residues 12 14 15 18 19 IQSYL (Escherichia coli, UniProt P23836); Sort-seq, measured: YFP reporter; E. coli; PhoQ-PhoP variant library, with: 10 µM Mg2+; relative to: high Mg2+ state, higher = stronger signaling).

Excerpt of the above (series 2):
The log fluorescence of `GCCTAGCACGACGATTTCGGGTTTCGCGACGTGCTAGTCTTGATTCGCTTGACGCTGCTG` is reported as 3.58 z-score.
